{"data": "Assay results gathered from unrelated publications", "note": "Several values in a cell are separate wells, animals, samples, runs or records. ± marks the error that the study gave."}
{"Compound": "[2H]C([2H])([2H])C([2H])([2H])C([2H])([2H])OC(C(=O)OC1CCNCC1)(c1ccccc1)c1ccccc1", "assay": "item: tonsillitis", "test system": "healthy Japanese male", "setting": "oral, 18 mg, 16 days, multiple ascending dose", "measurement": "adverse events", "value": "14.3%"}
{"Compound": "C#Cc1c(F)ccc2cc(O)cc(-c3ncc4c(N5CC6CCC(C5)N6C(=O)/C(C)=C(/C)C(=O)OCCCC)nc(OC[C@@]56CCCN5C[C@H](F)C6)nc4c3F)c12", "assay": "metabolic stability", "test system": "mouse, liver microsomes", "setting": "1 µM, pH 7.4", "measurement": "half-life", "value": "0.595 h"}
{"Compound": "CC[C@H](C)C(=O)N1CCC(NC(=O)Nc2ccc(OC(F)(F)F)c(F)c2)CC1", "test system": "healthy volunteers, both sexes", "setting": "oral, 8 mg, fed state", "measurement": "subjects with treatment-emergent photophobia", "value": "7.1%"}
{"Compound": "COC(=O)C[C@](O)(CCCC(C)(C)OC(C)=O)C(=O)O[C@@H]1C(OC)=C[C@]23CCCN2CCc2cc4c(cc2[C@H]13)OCO4", "test system": "CD1 mouse, brain", "setting": "oral, 1 mg/kg, 2 h, below quantification limit 1.00 ng/mL", "measurement": "tissue concentration", "value": "not detected"}
{"Compound": "C=Cc1c(C)c2cc3nc(c(CC(=O)O)c4[nH]c(cc5nc(cc1[nH]2)C(C)=C5CC)c(C)c4C(=O)O)[C@@H](CCC(=O)NCCCC[C@H](NC(C)=O)C(=O)N[C@@H](Cc1ccccc1)C(=O)N[C@@H](Cc1ccccc1)C(=O)N[C@H](C(=O)N[C@@H](CC(C)C)C(=O)N[C@@H](CCCCN)C(=O)N[C@@H](CO)C(=O)NCC(=O)N[C@@H](CCC(N)=O)C(=O)NCC(=O)N[C@@H](Cc1ccc(O)cc1)C(=O)N[C@@H](CCCNC(=N)N)C(=O)N[C@@H](Cc1c[nH]c2ccccc12)C(=O)N[C@@H](CC(=O)O)C(=O)N[C@@H](CO)C(=O)N[C@@H](Cc1ccc(O)cc1)C(=O)N[C@@H](CCCNC(=N)N)C(=O)N[C@@H](Cc1c[nH]c2ccccc12)C(=O)N[C@@H](Cc1c[nH]cn1)C(=O)N1CCC[C@H]1C(=O)N[C@@H](CO)C(=O)N[C@@H](CS)C(=O)N[C@@H](C)C(=O)N[C@@H](CS)C(=O)NCC(=O)NCC(=O)N[C@@H](CO)C(=O)N[C@@H](CCCCN)C(N)=O)C(C)C)[C@@H]3C", "assay": "CCK-8", "test system": "HFF, human", "setting": "1 to 200 µM, 24 h", "measurement": "cytotoxicity", "value": "not toxic"}
{"Compound": "C[C@H](Nc1c(-c2c(F)cc(OCCCN(C)C)cc2F)c(Cl)nc2ncnn12)C(F)(F)F", "test system": "CD1 mouse", "setting": "intraperitoneal, 5 mg/kg, 16 h", "measurement": "brain/plasma unbound AUC ratio", "value": "0.09 ± 0.01"}
{"Compound": "CC[C@H](C)[C@@H]1NC(=O)[C@H](CCCCN)NC(=O)[C@H](CCCCN)NC(=O)[C@H](Cc2ccc(O)cc2)NC(=O)[C@H](CC(C)C)NC(=O)[C@@H]2CCCN2C(=O)CNC(=O)CNC(=O)[C@@H](NC(=O)CN)CSSC[C@@H](C(=O)N[C@@H](CCCCN)C(=O)N[C@@H](CO)C(N)=O)NC(=O)[C@H](CC(C)C)NC(=O)[C@H](CCCCN)NC(=O)[C@H](CCCCN)NC(=O)[C@H]([C@@H](C)CC)NC(=O)[C@H]([C@@H](C)CC)NC(=O)[C@H](CCCCN)NC(=O)[C@H](CCCCN)NC(=O)[C@H](Cc2ccc(O)cc2)NC(=O)[C@H](CC(C)C)NC(=O)[C@@H]2CCCN2C(=O)[C@H](C)NC(=O)CNC(=O)CNC(=O)[C@H](CO)NC(=O)CNC(=O)CNC(=O)[C@H](CO)NC(=O)[C@H](CCCCN)NC(=O)[C@H](CC(C)C)NC(=O)[C@H](CC(C)C)NC(=O)[C@H](CCCCN)NC(=O)[C@H](CCCCN)NC(=O)[C@H]([C@@H](C)CC)NC1=O", "assay": "hemolysis", "test system": "uninfected human erythrocytes", "setting": "1 h", "measurement": "HC10", "value": "6.3 ± 1 µM"}
{"Compound": "C=Cc1cc(O)cc2nc(-c3ccc(O)c([76Br])c3)oc12", "test system": "female C57BL/6 mouse, muscle", "setting": "1 h, high dose, added: estradiol 20 µg blocking", "measurement": "tissue uptake", "value": "0.18 ± 0.13 %ID/g"}
{"Compound": "CCCCCCCC(=O)OC[C@H](NC(=O)[C@H](CO)NC(=O)CN)C(=O)N[C@@H](Cc1ccccc1)C(=O)N[C@@H](CC(C)C)C(=O)N[C@@H](CO)C(=O)N1CCC[C@H]1C(=O)N[C@@H](CCC(=O)O)C(=O)N[C@@H](Cc1cnc[nH]1)C(=O)N[C@@H](CCC(N)=O)C(=O)N[C@@H](CCCNC(=N)N)C(=O)N[C@H](C(=O)N[C@@H](CCC(N)=O)C(=O)N[C@@H](CCC(N)=O)C(=O)N[C@@H](CCCNC(=N)N)C(=O)N[C@@H](CCCCN)C(=O)N[C@@H](CCC(=O)O)C(=O)N[C@@H](CO)C(=O)N[C@@H](CCCCN)C(=O)N[C@@H](CCCCN)C(=O)N1CCC[C@H]1C(=O)N1CCC[C@H]1C(=O)N[C@@H](C)C(=O)N[C@@H](CCCCN)C(=O)N[C@@H](CC(C)C)C(=O)N[C@@H](CCC(N)=O)C(=O)N1CCC[C@H]1C(=O)N[C@@H](CCCNC(=N)N)C(=O)O)C(C)C", "test system": "human, plasma", "setting": "intravenous infusion, 1 µg/kg/h, 210 min", "measurement": "mean residence time", "value": "108 ± 10 min"}
{"Compound": "CC(C)[C@@H]1NC(=O)[C@H](Cc2ccccc2)NC(=O)[C@H](Cc2ccc(O)cc2)NC(=O)CCSSC[C@@H](C(=O)N2CCC[C@H]2C(=O)N[C@H](CCCNC(=N)N)C(=O)NCC(N)=O)NC(=O)[C@H](CCC(N)=O)NC1=O", "test system": "Wistar rat, blood", "setting": "intravenous, 100 µg/kg single dose, 72 h", "measurement": "fibrinogen", "value": "180 ± 45.7 mg/dL"}
{"Compound": "CN[C@](C)(C[18F])C(=O)O", "test system": "SCID mouse DU-145 xenograft, bone", "setting": "60 min post injection", "measurement": "tissue uptake", "value": "1.9 ± 0.2 %ID/g"}
{"Compound": "COc1cc(NC(=O)C(=O)c2c(C)n(Cc3ccc(Cl)cc3)c3ccc(C)cc23)ccn1", "test system": "cynomolgus monkey, female, plasma", "setting": "intravenous, 1 mg/kg", "measurement": "Vc", "value": "0.401 L/kg and 0.385 L/kg and 0.453 L/kg and 0.494 L/kg and 0.383 L/kg and 0.347 L/kg"}
{"Compound": "Cc1ccc(C(C)C)cc1.O=C(N=P(c1ccccc1)(c1ccccc1)c1ccccc1)c1ccccn1.[Cl-].[Cl-].[Ru+2]", "test system": "C57BL/6 mice", "setting": "5 mg/kg/day, 7 days", "measurement": "body weight loss", "value": "15%"}
{"Compound": "CC(C)(CCCC/C=C/CCCCCC(C)(C)C(=O)O)C(=O)O", "test system": "beagle dog", "setting": "long-term GLP toxicity", "measurement": "NOAEL", "value": "360 mg/kg"}
{"Compound": "CCNc1cc2[o+]c3cc(NCC)c(C)cc3c(-c3ccccc3C(=O)OCCOCC[18F])c2cc1C", "test system": "rat, mandibular gland", "setting": "120 min", "measurement": "tissue uptake", "value": "2.31 ± 0.54 %ID/g"}
{"Compound": "C/C=C/C=C/C/C=C/CCCCCCCc1cccc(O)c1O", "test system": "female Kunming mice tumour-bearing, kidneys", "setting": "intravenous, 10 mg/kg, 0.5 h", "measurement": "tissue concentration", "value": "30500 ± 3060 ng/g"}
{"Compound": "CSCC[C@@H]1NC(=O)[C@@H]2CSSC[C@H](NC(=O)[C@H](CO)NC(=O)[C@H](C)N)C(=O)N[C@@H](CCCNC(=N)N)C(=O)N[C@@H]([C@@H](C)O)C(=O)N3CCC[C@H]3C(=O)N[C@@H](CCCCN)C(=O)N[C@@H](CC(=O)O)C(=O)N[C@H]3CSSC[C@H](NC(=O)[C@H](CCCCN)NC(=O)[C@H](CCCNC(=N)N)NC(=O)[C@H](CC(N)=O)NC1=O)C(=O)N[C@@H](CCCCN)C(=O)N[C@H]1CSSC[C@H](NC(=O)[C@@H]4CCCN4C(=O)[C@H](CC(=O)O)NC(=O)[C@H](C)NC3=O)C(=O)N[C@@H](C)C(=O)N[C@@H](CCCCN)C(=O)N[C@@H](CCC(=O)O)C(=O)N[C@@H]([C@@H](C)O)C(=O)NCC(=O)N[C@@H](CSSC[C@@H](C(N)=O)NC(=O)[C@H](CCCNC(=N)N)NC(=O)[C@H](CC(N)=O)NC1=O)C(=O)N1CCC[C@H]1C(=O)N[C@@H](Cc1ccc(O)cc1)C(=O)NCC(=O)N[C@@H](CCCCN)C(=O)N2", "test system": "DA rat pristane-induced arthritis, serum", "setting": "subcutaneous, 0.1 mg/kg single dose at onset, 21 days", "measurement": "Calcium", "value": "9.36 mg/dL"}
{"Compound": "CCCCCCCCCCCCC(=O)O.O=C1CCCC2C3CCCN4CCCC(CN12)C34 (stereo not drawn)", "assay": "electrical conductivity", "test system": "water", "setting": "303.15 K", "measurement": "standard entropy of aggregation", "value": "108 J/(mol·K)"}
{"Compound": "CC(C)[C@H](NC(=O)CNC(=O)[C@H](CCC(N)=O)NC(=O)[C@H](C)N)C(=O)O", "assay": "any adverse event", "test system": "human", "setting": "30 mg/kg, 3 days, thrice daily dosing", "measurement": "subjects with adverse events", "value": "71.4%"}
{"Compound": "CN(C)C(CNC(=O)Nc1cc(C(F)(F)F)ccc1N1CCOCC1)c1ccncc1 (stereo not drawn)", "test system": "mouse, serum", "setting": "intraperitoneal, 240 mg/kg single dose", "measurement": "serum total bilirubin", "value": "0.2 mg/dL"}
{"Compound": "CC(NC(=O)NNS(=O)(=O)c1ccc(OC(F)F)cc1)(C(F)(F)F)C(F)(F)F", "test system": "rat Sprague-Dawley, plasma", "setting": "oral", "measurement": "half-life", "value": "2 h"}
{"Compound": "CSCC[C@H](NC(=O)[C@H](CO)NC(=O)[C@H](Cc1ccc(O)cc1)NC(=O)[C@@H](N)CO)C(=O)N[C@@H](CCC(=O)O)C(=O)N[C@@H](Cc1c[nH]cn1)C(=O)N[C@@H](Cc1ccccc1)C(=O)N[C@@H](CCCNC(=N)N)C(=O)N[C@@H](Cc1c[nH]c2ccccc12)C(=O)NCC(=O)N[C@@H](CCCCN)C(=O)N1CCC[C@H]1C(=O)N[C@H](C(=O)NCC(=O)N[C@@H](CCCCN)C(=O)N[C@@H](CCCCN)C(=O)N[C@@H](CCCNC(=N)N)C(=O)N[C@@H](CCCNC(=N)N)C(=O)N1CCC[C@H]1C(=O)N[C@H](C(=O)N[C@@H](CCCCN)C(=O)N[C@H](C(=O)N[C@@H](Cc1ccc(O)cc1)C(=O)N1CCC[C@H]1C(=O)N[C@@H](CC(=O)O)C(=O)NCC(=O)N[C@@H](C)C(=O)N[C@@H](CCC(=O)O)C(=O)N[C@@H](CC(=O)O)C(=O)N[C@@H](CCC(=O)O)C(=O)N[C@@H](CC(C)C)C(=O)N[C@@H](C)C(=O)N[C@@H](CCC(=O)O)C(=O)N[C@@H](C)C(=O)N[C@@H](Cc1ccccc1)C(=O)N1CCC[C@H]1C(=O)N[C@@H](CC(C)C)C(=O)N[C@@H](CCC(=O)O)C(=O)N[C@@H](Cc1ccccc1)C(=O)O)C(C)C)C(C)C)C(C)C", "test system": "human, plasma", "setting": "subcutaneous, dose not given, added: repository corticotropin injection", "measurement": "time to below LLOQ", "value": "< 24 h"}
{"Compound": "O=P1(NCCCl)NCCCO1 (stereo not drawn)", "test system": "rat, plasma", "setting": "intravenous, 10 mg/kg, added: ketoconazole 20 mg/kg oral 50 min before", "measurement": "AUC(0-inf)", "value": "558 ± 163 ng·h/mL"}
{"Compound": "O=C[C@H](C[C@@H]1CCNC1=O)NC(=O)[C@H](Cc1cccc(F)c1)NC(=O)c1cc2ccccc2[nH]1", "test system": "mouse", "setting": "intravenous, 5 mg/kg", "measurement": "clearance", "value": "20.6 mL/min/kg"}
{"note": "Some of these lines once more:"}
{"Compound": "CN[C@](C)(C[18F])C(=O)O", "test system": "SCID mouse DU-145 xenograft, bone", "setting": "60 min post injection", "measurement": "tissue uptake", "value": "1.9 ± 0.2 %ID/g"}
{"Compound": "COc1cc(NC(=O)C(=O)c2c(C)n(Cc3ccc(Cl)cc3)c3ccc(C)cc23)ccn1", "test system": "cynomolgus monkey, female, plasma", "setting": "intravenous, 1 mg/kg", "measurement": "Vc", "value": "0.401 L/kg and 0.385 L/kg and 0.453 L/kg and 0.494 L/kg and 0.383 L/kg and 0.347 L/kg"}
{"Compound": "Cc1ccc(C(C)C)cc1.O=C(N=P(c1ccccc1)(c1ccccc1)c1ccccc1)c1ccccn1.[Cl-].[Cl-].[Ru+2]", "test system": "C57BL/6 mice", "setting": "5 mg/kg/day, 7 days", "measurement": "body weight loss", "value": "15%"}
{"Compound": "CC(C)(CCCC/C=C/CCCCCC(C)(C)C(=O)O)C(=O)O", "test system": "beagle dog", "setting": "long-term GLP toxicity", "measurement": "NOAEL", "value": "360 mg/kg"}
